Assay results collected from several papers.
Every numbered part comes from another study and shows a few of its results, in no order. “And” joins repeats or separate records; there may be more than shown.
UniProt O60331, sequence (whole entry, looked up): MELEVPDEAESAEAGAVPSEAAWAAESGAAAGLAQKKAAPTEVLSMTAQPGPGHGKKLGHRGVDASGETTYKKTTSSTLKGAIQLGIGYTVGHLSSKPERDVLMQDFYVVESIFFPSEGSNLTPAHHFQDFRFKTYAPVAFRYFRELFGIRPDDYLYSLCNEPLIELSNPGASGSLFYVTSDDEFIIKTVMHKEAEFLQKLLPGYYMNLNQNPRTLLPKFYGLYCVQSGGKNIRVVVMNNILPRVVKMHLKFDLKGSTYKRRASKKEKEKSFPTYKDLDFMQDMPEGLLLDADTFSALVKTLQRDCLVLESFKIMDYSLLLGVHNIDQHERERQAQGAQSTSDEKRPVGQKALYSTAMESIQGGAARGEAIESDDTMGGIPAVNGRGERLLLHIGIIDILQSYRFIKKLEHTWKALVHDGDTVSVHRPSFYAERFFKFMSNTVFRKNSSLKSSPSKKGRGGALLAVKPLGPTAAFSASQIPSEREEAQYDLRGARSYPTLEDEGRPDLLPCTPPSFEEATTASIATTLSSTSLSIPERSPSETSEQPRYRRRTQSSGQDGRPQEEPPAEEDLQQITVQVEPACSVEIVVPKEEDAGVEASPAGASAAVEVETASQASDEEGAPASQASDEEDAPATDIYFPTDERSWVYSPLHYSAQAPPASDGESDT
UniProt P68400, sequence (whole entry, looked up): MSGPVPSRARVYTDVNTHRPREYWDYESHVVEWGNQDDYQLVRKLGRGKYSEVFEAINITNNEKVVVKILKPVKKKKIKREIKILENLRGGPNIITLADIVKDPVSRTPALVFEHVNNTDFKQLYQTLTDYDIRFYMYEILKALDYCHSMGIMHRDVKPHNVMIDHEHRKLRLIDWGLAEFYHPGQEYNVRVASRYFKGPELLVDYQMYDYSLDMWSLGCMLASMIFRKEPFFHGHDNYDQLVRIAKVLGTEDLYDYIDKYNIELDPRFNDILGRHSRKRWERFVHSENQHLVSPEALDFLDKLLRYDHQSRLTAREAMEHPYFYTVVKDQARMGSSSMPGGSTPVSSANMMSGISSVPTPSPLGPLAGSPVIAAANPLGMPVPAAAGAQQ
UniProt Q05397, sequence (whole entry, looked up): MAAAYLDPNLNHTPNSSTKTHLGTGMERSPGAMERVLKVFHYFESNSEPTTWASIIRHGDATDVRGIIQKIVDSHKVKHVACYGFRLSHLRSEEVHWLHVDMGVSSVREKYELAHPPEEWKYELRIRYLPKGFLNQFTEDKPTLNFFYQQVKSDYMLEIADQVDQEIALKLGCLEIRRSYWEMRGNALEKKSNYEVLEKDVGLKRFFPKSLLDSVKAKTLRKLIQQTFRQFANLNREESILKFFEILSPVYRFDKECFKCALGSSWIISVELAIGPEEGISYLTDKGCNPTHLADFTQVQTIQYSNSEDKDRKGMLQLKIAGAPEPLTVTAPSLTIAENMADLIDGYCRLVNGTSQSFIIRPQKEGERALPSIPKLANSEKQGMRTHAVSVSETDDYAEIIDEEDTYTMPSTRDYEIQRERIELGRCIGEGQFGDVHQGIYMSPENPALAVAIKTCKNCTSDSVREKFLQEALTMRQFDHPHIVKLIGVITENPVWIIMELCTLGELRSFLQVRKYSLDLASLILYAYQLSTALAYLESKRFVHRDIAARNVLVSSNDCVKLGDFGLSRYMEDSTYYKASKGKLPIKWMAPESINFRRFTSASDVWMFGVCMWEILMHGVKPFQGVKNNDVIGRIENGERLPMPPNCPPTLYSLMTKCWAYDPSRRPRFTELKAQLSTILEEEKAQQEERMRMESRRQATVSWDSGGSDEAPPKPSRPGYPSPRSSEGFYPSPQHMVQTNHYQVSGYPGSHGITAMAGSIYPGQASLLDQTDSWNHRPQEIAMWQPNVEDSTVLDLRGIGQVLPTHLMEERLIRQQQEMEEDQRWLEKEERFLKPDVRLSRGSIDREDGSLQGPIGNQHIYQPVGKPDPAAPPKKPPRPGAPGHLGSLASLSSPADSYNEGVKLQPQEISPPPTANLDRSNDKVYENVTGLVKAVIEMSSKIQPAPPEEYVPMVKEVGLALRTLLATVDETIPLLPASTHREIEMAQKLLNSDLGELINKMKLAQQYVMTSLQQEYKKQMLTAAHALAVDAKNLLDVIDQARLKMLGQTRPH
UniProt Q8N752, sequence (whole entry, looked up): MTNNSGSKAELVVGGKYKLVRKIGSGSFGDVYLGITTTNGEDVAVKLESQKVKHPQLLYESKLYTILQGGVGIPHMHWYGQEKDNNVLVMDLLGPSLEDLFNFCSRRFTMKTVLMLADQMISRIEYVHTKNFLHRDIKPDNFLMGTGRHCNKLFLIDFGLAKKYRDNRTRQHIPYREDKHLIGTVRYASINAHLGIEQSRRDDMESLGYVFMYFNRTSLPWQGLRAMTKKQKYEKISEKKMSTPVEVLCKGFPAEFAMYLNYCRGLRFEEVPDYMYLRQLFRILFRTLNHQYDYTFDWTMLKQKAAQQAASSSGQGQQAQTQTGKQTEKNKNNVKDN
UniProt P08631, sequence (whole entry, looked up): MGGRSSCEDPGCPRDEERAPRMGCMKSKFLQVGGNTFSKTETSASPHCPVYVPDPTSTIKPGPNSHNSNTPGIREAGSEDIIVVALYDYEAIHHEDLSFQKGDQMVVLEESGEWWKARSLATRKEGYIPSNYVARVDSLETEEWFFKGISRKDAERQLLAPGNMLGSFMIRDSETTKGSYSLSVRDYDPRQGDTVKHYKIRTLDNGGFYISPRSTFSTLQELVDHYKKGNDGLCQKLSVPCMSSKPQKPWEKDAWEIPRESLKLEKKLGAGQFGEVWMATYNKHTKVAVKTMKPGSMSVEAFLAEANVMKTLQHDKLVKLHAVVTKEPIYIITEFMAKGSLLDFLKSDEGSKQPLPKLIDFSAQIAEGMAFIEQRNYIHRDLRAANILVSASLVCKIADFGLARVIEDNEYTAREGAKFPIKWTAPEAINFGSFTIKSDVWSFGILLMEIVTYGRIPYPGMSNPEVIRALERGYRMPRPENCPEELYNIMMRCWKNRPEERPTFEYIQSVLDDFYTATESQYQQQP
UniProt O14920, sequence (whole entry, looked up): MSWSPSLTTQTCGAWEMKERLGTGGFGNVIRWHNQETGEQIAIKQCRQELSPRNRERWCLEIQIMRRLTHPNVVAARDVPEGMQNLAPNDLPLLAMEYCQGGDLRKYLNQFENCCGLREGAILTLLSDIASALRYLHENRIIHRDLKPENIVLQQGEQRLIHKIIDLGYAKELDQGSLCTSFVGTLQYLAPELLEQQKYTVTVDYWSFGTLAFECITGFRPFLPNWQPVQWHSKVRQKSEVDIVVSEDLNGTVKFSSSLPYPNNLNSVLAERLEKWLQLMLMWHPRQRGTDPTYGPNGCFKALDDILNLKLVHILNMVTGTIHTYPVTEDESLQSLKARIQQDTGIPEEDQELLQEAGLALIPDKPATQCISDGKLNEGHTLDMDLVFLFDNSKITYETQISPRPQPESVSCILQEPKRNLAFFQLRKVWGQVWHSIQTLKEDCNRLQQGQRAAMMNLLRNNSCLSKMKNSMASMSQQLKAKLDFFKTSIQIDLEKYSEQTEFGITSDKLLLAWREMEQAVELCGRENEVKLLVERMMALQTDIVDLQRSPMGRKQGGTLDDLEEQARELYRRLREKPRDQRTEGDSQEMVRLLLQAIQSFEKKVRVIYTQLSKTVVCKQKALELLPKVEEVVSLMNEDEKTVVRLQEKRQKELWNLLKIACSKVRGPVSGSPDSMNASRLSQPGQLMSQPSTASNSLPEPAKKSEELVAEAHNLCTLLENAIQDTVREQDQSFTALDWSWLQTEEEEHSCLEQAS
UniProt Q9Y6M4, sequence (whole entry, looked up): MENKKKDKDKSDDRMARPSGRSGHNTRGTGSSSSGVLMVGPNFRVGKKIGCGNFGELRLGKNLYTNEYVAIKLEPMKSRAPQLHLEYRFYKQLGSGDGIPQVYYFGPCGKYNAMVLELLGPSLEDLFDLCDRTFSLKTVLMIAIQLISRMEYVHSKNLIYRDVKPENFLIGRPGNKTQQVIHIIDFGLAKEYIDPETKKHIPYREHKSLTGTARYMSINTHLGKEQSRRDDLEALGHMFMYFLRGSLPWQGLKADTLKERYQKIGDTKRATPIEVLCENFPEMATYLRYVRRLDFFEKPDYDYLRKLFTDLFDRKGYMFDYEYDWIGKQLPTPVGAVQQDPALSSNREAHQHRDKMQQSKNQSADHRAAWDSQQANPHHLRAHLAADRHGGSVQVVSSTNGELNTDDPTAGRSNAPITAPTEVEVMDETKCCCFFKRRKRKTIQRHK
UniProt Q04759, sequence (whole entry, looked up): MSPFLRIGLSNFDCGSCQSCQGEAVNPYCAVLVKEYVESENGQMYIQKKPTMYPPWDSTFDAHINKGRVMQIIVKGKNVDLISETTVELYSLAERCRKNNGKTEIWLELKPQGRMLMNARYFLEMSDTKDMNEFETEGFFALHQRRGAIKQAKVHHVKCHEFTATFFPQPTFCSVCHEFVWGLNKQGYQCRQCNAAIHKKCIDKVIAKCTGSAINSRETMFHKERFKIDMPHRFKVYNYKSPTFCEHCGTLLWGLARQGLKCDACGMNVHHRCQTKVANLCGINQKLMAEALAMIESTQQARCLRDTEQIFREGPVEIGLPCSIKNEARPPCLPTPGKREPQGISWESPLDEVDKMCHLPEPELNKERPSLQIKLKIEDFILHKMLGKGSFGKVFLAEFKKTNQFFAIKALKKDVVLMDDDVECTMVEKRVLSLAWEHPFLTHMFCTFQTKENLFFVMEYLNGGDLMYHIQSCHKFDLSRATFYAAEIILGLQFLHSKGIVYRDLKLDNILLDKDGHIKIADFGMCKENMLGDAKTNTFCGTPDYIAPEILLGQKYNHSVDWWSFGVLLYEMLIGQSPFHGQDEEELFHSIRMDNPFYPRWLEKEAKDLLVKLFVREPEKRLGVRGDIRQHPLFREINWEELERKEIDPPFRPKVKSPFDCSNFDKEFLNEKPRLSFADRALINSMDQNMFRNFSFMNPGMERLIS

Study 1
Structure (SMILES): CC#CC(=O)N1CCC[C@H]1c1nc(-c2ccc(C(=O)Nc3ccccn3)cc2)c2c(N)nccn12
Read-out: enzyme activity
Mode: inhibitor
Tested at: 1 µM
For CDK15 (Homo sapiens, UniProt Q96Q40): inhibition read 0%.
The inhibition was 5% (PTK2 (Homo sapiens, UniProt Q05397)).
CSNK1G3 (Homo sapiens, UniProt Q9Y6M4) — inhibition: 2%.
The inhibition was 31% (Tyrosine-protein kinase ABL1, non-phosphorylated (ABL1, Homo sapiens, UniProt P00519, H396P)).
PDPK1 (Homo sapiens, UniProt O15530) — inhibition: 0%.
HCK (Homo sapiens, UniProt P08631) — inhibition: 1%.

Study 2
SMILES: O=C(NCc1ncc(C(F)(F)F)cc1Cl)c1ccc2c(c1)C1(CCS(=O)(=O)CC1)[C@@H](C1CC1)N2S(=O)(=O)c1ccc(F)cc1
Read-out: cell-free assay
Technique: competition with immobilised ligand
Tested at: 1 µM
It gave 95% for remaining binding (PRKCQ (Homo sapiens, UniProt Q04759)).
The remaining binding was 88% (NEK2 (Homo sapiens, UniProt P51955)).
It gave 100% for remaining binding (PIK3CA (Homo sapiens, UniProt P42336)).
It gave 97% for remaining binding (MAPK7 (Homo sapiens, UniProt Q13164)).
For DCLK2 (Homo sapiens, UniProt Q8N568): remaining binding read 100%.
For Myosin-IIIb (MYO3B, Homo sapiens, UniProt Q8WXR4): remaining binding read 100%.
STK38 (Homo sapiens, UniProt Q15208) — remaining binding: 84%.
The remaining binding was 89% (Tyrosine-protein kinase ABL1, non-phosphorylated (ABL1, Homo sapiens, UniProt P00519)).
PIP5K1C (Homo sapiens, UniProt O60331) — remaining binding: 94%.
The remaining binding was 100% (CSNK1A1L (Homo sapiens, UniProt Q8N752)).
IKBKB (Homo sapiens, UniProt O14920) — remaining binding: 86%.
The remaining binding was 100% (NEK3 (Homo sapiens, UniProt P51956)).
It gave 67% for remaining binding (CSNK2A1 (Homo sapiens, UniProt P68400)).

Study 3
Target: His6 tag
Technique: AlphaScreen counter screen
Tested at: concentration not given
O=C(CSc1ccc2nnc(-c3cccc(F)c3)n2n1)Nc1ccc(F)cc1F has an inhibition of -7.8%.
For O=S(=O)(c1cccc2cnccc12)N1CCCNCC1, the inhibition was 9.9% and 4.1%.
For CCC(Sc1ccc2nnc(-c3ccc(OC)c(OC)c3)n2n1)C(=O)OC (stereo not drawn), the inhibition was 8.95%.
For COc1cc(F)c(F)c(Nc2ccc(I)cc2F)c1NS(=O)(=O)C1(C[C@H](O)CO)CC1, the inhibition was 4.9%.
O=c1[nH]cnc2sc(-c3ccccc3)cc12 gave an inhibition of 7.5%.
The inhibition of CC(C)NC[C@@H](C(=O)N1CCN(c2ncnc3c2[C@H](C)C[C@H]3O)CC1)c1ccc(Cl)cc1 is reported as -0.8%.
NC1(C(=O)N[C@@H](CCO)c2ccc(Cl)cc2)CCN(c2ncnc3[nH]ccc23)CC1 gave an inhibition of 17.3%.

Study 4
Host: mouse
Medium: microsomes or S9
Tested at: 2 µM
Time: 0.5 h
The remaining compound of CCN(CC)S(=O)(=O)c1ccc2nc(NCc3cc(F)cc(F)c3)cnc2c1 is reported as 2.05%.
O=c1c(Br)c(Br)cnn1CCn1ncc(Br)c(Br)c1=O has a remaining compound of 31.2%.
Fc1ccc2nccc(Nc3ccccc3F)c2c1 gave a remaining compound of 88.4%.
Nc1c(Br)cc(O)cc1Br gave a remaining compound of 50.5%.
Cn1nc(C2CCCN2C(=O)COc2ccc(F)cc2)c2c1CCOC2 (stereo not drawn) gave a remaining compound of 9.57%.
For CCN1CCCC1CNC(=O)c1n[nH]c2c1CCC2 (stereo not drawn), the remaining compound was 76.1%.
With Cn1ccc(-c2cnc(-c3cc(F)ccc3[N+](=O)[O-])nc2)n1 the remaining compound was 76.2%.
CN(Cc1ccccc1N1CCCCC1)S(=O)(=O)c1cn(C)c(=O)n(C)c1=O gave a remaining compound of 3.52%.
O=C(COc1ccc2c3ccccc3n(C(=O)c3cccc4ccccc34)c2c1)N1CCCC1 gave a remaining compound of 42.5%.
With O=c1[nH]c2cc(-c3noc(-c4ccc(F)c(F)c4)n3)ccc2n1C1CCCC1 the remaining compound was 67.6%.

Some of these lines once more (study 2):
It gave 100% for remaining binding (PIK3CA (Homo sapiens, UniProt P42336)).
It gave 97% for remaining binding (MAPK7 (Homo sapiens, UniProt Q13164)).
For DCLK2 (Homo sapiens, UniProt Q8N568): remaining binding read 100%.
For Myosin-IIIb (MYO3B, Homo sapiens, UniProt Q8WXR4): remaining binding read 100%.
